# Measurements from different studies.
# Every numbered part comes from another study and shows a few of its results, in no order.
# Sequence of UniProt O14976 (whole entry, looked up): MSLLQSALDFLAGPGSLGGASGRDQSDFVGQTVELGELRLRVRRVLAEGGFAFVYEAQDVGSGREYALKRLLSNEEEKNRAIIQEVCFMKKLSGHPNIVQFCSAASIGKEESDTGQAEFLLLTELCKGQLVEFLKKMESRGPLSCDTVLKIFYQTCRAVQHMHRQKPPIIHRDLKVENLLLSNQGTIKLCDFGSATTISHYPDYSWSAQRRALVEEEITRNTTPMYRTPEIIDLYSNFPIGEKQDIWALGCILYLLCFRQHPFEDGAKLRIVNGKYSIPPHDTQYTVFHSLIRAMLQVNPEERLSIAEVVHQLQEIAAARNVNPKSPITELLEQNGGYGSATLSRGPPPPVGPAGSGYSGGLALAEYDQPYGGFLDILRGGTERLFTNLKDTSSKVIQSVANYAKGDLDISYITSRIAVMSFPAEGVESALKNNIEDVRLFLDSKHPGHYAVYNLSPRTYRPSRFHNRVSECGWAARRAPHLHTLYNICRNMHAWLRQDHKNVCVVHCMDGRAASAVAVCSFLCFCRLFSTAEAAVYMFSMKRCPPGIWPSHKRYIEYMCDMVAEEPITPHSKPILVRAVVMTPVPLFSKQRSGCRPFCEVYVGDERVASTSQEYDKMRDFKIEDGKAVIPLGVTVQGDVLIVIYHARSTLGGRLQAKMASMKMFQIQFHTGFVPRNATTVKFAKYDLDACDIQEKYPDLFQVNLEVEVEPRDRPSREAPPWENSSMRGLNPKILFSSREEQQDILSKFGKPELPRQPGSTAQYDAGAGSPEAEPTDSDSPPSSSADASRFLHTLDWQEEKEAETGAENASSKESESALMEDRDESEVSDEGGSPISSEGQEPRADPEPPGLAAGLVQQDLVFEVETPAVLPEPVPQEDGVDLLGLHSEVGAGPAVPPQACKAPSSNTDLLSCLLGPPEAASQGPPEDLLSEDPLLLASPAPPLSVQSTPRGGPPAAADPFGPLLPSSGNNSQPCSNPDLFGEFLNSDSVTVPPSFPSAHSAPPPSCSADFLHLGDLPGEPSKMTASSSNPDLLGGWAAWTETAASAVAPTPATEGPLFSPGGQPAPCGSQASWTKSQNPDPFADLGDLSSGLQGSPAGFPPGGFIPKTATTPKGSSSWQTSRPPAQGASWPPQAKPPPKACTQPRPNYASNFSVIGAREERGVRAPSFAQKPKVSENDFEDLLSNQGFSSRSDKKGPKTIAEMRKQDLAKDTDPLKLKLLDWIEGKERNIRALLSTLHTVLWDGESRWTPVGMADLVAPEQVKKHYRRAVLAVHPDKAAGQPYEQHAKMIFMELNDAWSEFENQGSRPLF
# Sequence of UniProt Q8TD19 (whole entry, looked up): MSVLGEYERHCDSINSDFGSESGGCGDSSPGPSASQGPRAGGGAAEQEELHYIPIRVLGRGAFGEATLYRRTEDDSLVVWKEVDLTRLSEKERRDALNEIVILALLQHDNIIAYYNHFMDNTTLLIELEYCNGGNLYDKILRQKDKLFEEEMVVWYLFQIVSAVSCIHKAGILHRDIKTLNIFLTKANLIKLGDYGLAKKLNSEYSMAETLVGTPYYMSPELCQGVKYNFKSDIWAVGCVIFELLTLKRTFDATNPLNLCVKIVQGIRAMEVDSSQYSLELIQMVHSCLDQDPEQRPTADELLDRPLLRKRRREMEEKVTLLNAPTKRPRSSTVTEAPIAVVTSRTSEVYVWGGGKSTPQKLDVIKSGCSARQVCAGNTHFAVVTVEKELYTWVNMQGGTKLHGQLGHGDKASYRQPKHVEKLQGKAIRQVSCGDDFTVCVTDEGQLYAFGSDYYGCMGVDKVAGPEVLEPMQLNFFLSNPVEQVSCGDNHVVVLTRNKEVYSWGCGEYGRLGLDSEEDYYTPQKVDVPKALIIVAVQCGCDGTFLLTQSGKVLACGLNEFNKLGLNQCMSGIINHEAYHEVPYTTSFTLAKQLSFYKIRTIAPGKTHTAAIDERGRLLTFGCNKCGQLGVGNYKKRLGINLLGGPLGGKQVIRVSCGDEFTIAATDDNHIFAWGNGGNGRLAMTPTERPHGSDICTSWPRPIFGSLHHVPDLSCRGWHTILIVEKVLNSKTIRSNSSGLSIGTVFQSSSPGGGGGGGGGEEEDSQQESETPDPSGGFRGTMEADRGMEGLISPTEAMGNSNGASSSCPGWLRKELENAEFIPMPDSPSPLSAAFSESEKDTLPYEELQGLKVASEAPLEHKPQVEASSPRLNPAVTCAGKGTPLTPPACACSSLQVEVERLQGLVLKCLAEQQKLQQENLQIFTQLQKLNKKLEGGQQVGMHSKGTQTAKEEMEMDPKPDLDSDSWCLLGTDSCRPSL
# Sequence of UniProt Q86YV6 (whole entry, looked up): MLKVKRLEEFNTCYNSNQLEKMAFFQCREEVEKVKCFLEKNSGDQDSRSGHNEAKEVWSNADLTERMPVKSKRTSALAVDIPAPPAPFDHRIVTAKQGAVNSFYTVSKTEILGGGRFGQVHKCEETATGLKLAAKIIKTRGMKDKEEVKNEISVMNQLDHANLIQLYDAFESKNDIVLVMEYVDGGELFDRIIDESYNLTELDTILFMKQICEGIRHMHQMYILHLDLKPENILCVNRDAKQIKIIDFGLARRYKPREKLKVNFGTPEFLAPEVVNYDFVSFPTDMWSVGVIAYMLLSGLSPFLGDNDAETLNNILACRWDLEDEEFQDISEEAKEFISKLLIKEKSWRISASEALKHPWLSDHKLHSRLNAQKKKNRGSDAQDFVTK
# Sequence of UniProt Q13237 (whole entry, looked up): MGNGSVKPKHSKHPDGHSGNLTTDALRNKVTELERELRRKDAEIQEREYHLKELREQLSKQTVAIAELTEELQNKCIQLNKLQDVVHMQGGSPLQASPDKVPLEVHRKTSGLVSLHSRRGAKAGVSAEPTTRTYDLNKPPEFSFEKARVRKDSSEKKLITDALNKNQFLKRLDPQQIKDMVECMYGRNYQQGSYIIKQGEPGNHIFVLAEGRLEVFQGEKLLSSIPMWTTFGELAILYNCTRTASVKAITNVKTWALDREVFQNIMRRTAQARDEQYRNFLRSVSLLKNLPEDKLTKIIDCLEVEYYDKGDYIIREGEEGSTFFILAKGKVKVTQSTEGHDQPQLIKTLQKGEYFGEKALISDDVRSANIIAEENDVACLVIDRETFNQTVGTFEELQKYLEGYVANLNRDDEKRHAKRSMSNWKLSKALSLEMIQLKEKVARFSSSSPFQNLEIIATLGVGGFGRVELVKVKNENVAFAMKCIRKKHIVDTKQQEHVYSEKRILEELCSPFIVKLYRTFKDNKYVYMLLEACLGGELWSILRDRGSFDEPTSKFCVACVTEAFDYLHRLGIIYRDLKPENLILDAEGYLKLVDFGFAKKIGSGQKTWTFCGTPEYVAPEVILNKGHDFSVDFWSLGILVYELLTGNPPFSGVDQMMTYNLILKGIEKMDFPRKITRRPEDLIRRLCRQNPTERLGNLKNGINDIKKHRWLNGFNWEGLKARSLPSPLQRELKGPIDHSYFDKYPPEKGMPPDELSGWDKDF
# Sequence of UniProt Q9HBH9 (whole entry, looked up): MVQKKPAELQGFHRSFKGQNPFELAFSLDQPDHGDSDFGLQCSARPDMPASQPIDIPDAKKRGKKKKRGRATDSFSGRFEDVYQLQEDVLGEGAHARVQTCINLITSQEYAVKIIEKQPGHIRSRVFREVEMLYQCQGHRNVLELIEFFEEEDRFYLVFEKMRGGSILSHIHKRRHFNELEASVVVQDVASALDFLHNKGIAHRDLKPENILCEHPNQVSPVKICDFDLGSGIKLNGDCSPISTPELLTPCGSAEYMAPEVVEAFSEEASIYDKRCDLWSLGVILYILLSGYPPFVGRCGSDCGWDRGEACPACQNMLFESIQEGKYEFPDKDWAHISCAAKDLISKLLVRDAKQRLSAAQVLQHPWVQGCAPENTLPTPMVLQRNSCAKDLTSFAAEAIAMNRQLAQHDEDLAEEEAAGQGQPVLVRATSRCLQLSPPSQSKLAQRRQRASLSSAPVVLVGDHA

# Sample 1
# Target: Serine/threonine-protein kinase 10 (STK10, Homo sapiens, UniProt O94804)
# Sequence of UniProt O94804 (whole entry, looked up): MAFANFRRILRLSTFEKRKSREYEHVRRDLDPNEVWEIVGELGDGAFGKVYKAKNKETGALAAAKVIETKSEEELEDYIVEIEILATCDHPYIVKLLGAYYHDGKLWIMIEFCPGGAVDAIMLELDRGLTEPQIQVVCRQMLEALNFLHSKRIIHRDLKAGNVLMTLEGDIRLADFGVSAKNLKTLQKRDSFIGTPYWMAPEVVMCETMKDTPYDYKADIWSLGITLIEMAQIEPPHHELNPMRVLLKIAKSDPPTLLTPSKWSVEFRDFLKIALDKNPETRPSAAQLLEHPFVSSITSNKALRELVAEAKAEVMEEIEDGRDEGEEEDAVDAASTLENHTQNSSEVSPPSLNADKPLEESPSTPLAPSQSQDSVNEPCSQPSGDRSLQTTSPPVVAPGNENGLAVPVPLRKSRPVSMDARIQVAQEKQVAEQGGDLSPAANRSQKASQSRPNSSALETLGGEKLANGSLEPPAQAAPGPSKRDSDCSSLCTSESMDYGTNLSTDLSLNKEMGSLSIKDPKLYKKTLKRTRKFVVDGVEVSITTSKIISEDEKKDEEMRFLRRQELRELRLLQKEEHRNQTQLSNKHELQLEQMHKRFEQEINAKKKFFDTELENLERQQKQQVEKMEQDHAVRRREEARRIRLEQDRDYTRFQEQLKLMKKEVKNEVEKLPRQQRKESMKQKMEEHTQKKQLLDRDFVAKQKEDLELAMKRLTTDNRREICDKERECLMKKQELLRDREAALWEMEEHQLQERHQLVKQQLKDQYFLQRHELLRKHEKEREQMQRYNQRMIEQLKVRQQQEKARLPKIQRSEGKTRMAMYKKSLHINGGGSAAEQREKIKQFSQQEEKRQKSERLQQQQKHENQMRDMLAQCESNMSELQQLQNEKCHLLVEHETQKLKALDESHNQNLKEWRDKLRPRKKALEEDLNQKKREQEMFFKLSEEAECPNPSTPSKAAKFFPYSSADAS
# Effect on: enzyme activity
# Action: inhibitor
# Tested at: 0.5 µM
# Reference: control
SMILES,remaining activity [%]
COc1cc2ncnc(Nc3ccc(Oc4ccccc4)cc3)c2cc1OC,74
O=S(=O)(c1cccc2cnccc12)N1CCCNCC1,103
COc1cc2nccc(Oc3ccc(NC(=S)NC(=O)c4ccccc4C)cc3)c2cc1OC,11.9
CNC(=O)c1cc(Oc2ccc(NC(=O)Nc3ccc(Cl)c(C(F)(F)F)c3)cc2)ccn1,72.4
O=c1c2ccccc2[nH]c(=S)n1CCN1CCC(=C(c2ccc(F)cc2)c2ccc(F)cc2)CC1,96.2
OCC(O)CCON=C1C(c2c(O)[nH]c3ccccc23)=Nc2ccccc21 (stereo not shown),52.1
COc1ccc(CNC(=O)Nc2ncc([N+](=O)[O-])s2)cc1,94.3
O=C(Nc1cccc(Nc2cc(Nc3cccc(C(F)(F)F)c3)ncn2)c1)C1CC1,95.7
O=C1NC(=O)C(c2cn(CCCn3ccnc3)c3ccccc23)=C1Nc1ccccc1,11.5
CO[C@H]1C[C@@H]2CC[C@@H](C)[C@@](O)(O2)C(=O)C(=O)N2CCCC[C@H]2C(=O)O[C@H]([C@H](C)C[C@@H]2CC[C@@H](O)[C@H](OC)C2)CC(=O)[C@H](C)/C=C(\C)[C@@H](O)[C@@H](OC)C(=O)[C@H](C)C[C@H](C)/C=C/C=C/C=C/1C,97.7
CCOC(=O)c1c(C)[nH]c(/C=C2\C(=O)Nc3ccccc32)c1C,82.2
Nc1ccc2ncnc(NCCc3ccc(Oc4ccccc4)cc3)c2c1,90.8
Nc1[nH]nc2nc3ccccc3nc12,94.6
Oc1ccc(-c2nc(-c3ccncc3)c(-c3ccc(F)cc3)[nH]2)cc1,85
Cc1ccc(NC(=O)c2ccc(CN3CCN(C)CC3)cc2)cc1Nc1nc(-c2cccnc2)cs1,93.8

# Sample 2
# Cell line: sample F normal colon organoid
# Method: CellTiter-Glo
# Tested at: 1 µM
# Time: 4 days
# Reference: DMSO
SMILES,viability
C[C@H](c1ccc(F)cc1)N(Cc1cccc(C(=O)O)c1)C(=O)c1cnc2ccccc2c1,101%
CN(C)C(=O)Cn1cc(-c2nc(C3(c4ccc(-c5cnc(N)nc5)cc4)CC3)no2)cn1,106%
C[C@@]1(Cc2ccc(C#N)cc2)C(=O)N(c2cc(Cl)cc(Cl)c2)c2ncc(C(=O)NC3(c4nc(C5CCC5)no4)CC3)n21,91.9%
C[C@H](NC(=O)c1cnc2n1[C@](C)(Cc1ccc(C#N)cc1)C(=O)N2c1cc(Cl)c(F)c(Cl)c1)C(=O)NC1(c2ccccn2)CC1,109%
C[C@H](c1ccc(F)cc1)N(Cc1ccc(Cl)c(C(=O)O)c1)C(=O)c1cnc2ccccc2c1,95.3%
CN(C)c1ncnc(-c2ccc3nc(Nc4cc(CN5CCN(C(=O)CC(F)(F)F)CC5)ccn4)[nH]c3c2)c1Cl,106%
NS(=O)(=O)c1cc(NC(=O)C2(c3ccccc3Cl)CC2)ccc1Oc1cccc(Cl)c1,102%
O=C(Nc1cccnn1)N1CCC(=Cc2cccc(Oc3ccc(C(F)(F)F)cn3)c2)CC1,99.7%

# Sample 3
# Compound: COc1ccc2[nH]c3c4[nH]c5ccc(OC)cc5c4c4c(c3c2c1)C(=O)NC4=O
# Method: competitive binding panel
# Tested at: 1 µM
# Reference: vehicle
target,remaining binding
"GAK (Homo sapiens, UniProt O14976)",0.3%
"ERN1 (Homo sapiens, UniProt O75460)",93%
"MKNK2 (Homo sapiens, UniProt Q9HBH9)",54%
"PRKG2 (Homo sapiens, UniProt Q13237)",0.9%
"NEK9 (Homo sapiens, UniProt Q8TD19)",100%
"MYLK4 (Homo sapiens, UniProt Q86YV6)",49%
"TNIK (Homo sapiens, UniProt Q9UKE5)",3%

# Sample 4
# Cell line: Huh-7
# Tested at: 10 µM
# Time: 24 h
Structure (SMILES),viability [%]
CC1=C(C/C=C(\C)CCC[C@H](C)CCC[C@H](C)CCCC(C)C)C(=O)c2ccccc2C1=O,99.9
O=c1[nH]cc(F)c(=O)[nH]1,64.7
OC(CCN1CCCC1)(c1ccccc1)C1CCCCC1 (stereo not shown),95.5
CN(C)CCC(c1ccccc1)c1ccccn1 (stereo not shown),100
CN1Cc2c(N)cccc2C(c2ccccc2)C1 (stereo not shown),96.2
NC(=O)c1ccccc1O,103
CO[C@H]1C[C@@H]2CC[C@@H](C)[C@@](O)(O2)C(=O)C(=O)N2CCCC[C@H]2C(=O)O[C@H]([C@H](C)C[C@@H]2CC[C@@H](O)[C@H](OC)C2)CC(=O)[C@H](C)/C=C(\C)[C@@H](O)[C@@H](OC)C(=O)[C@H](C)C[C@H](C)/C=C/C=C/C=C/1C,87.5
